Assay results from different studies.
Parts stem from different laboratories: compare values within a part only.

Series 1 — technique: protein binding microarray; form: double-stranded DNA, one strand shown; medium: in vitro; concentration: not given; reference: not given; reading: higher = stronger binding; measurement: E-score
Target: Histone acetyltransferase KAT6A, winged helix 1, GST fusion (KAT6A, Homo sapiens, UniProt Q92794, residues 1-85)
Setting: 8-mer, flanks averaged, mean of 2 arrays, mostly near background
Residues (chain): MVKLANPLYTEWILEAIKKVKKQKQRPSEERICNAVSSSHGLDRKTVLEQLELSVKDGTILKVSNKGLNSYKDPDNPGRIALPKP
ATACACCG: 0.186
CCGGAGAG: 0.1
ATCGTTTG: -0.0872
TGGCGAAA: -0.0522
CCTAGTCG: -0.0878
ATTCTACG: 0.0788
ATCGAAGA: -0.0206
GAACAATC: -0.00848
GCTCCAGA: -0.144
GCGAGGGA: 0.0827
ACTCGATC: 0.0397
ATCGCAAT: -0.0349
GACGGCCC: 0.395

Series 2 — technique: RNA Bind-n-Seq; form: RNA; medium: in vitro; concentration: not given; reference: input RNA pool; reading: higher = stronger binding; measurement: bound/input enrichment
Target: RING finger protein unkempt homolog, zinc fingers 1-6, GST-SBP tag (UNK, Homo sapiens, UniProt Q9C0B0, residues 30-357)
Sequence of UniProt Q9C0B0 (30-357, looked up): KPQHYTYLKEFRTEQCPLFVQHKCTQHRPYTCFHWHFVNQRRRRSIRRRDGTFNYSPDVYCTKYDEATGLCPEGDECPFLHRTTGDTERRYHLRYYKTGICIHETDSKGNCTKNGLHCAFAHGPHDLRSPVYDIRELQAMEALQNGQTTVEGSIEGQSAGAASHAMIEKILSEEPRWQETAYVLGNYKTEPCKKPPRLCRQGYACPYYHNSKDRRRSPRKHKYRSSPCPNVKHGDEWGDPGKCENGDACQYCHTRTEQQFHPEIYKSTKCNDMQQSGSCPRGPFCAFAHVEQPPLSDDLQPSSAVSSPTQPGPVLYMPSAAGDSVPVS
Setting: RNA with constant flanks, human and mouse sites, ends assumed
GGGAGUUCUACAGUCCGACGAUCAAAAGACCAUAUGUUGAUUCUACCUGUGUUCUGUUCCAGCGAAUUGGGAAGUCUCACCAAGCUAGAUUGUCUACCAUCAGCCCAGAACUCUGUAACUUUUCAGAACUGCUAUACUCAAACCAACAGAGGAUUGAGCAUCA: 0.25 ratio
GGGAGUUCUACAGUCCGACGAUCAAAGCUGCACUGAAAAGCUUGAUUCCUACAUUGGAAAAAACCAAAAGCACCAGCAAAGGAAUAGAAAUUCUACUUGAAAAACUGAGCACAUAGGUGGAAAGAGUUAAGAGCAAGAUGGAACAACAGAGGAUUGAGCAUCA: 0.241 ratio
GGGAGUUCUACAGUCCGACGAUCCAAACUUAUCAAGAAAUAGUUACCAGUCAUUCCGCAGCAUCCUGAGAACAGUUAAAAACACAUUUCAUAGUAAUGCCCUUCCAUUUUGGUAAUACUAAGCUGAACAUUUAAAAAUCUUGGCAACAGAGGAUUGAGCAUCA: 0.468 ratio
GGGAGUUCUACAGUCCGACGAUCCUCAAGCUACCAAAAAGGAAGUGGCAAUAGAUUGACUCAGGAUGUCAGAGCUCGGGAUUUUAGCAUUACUGCGUAAAGACUUUUGAAGGGACAGAAGUGAAGAAAUAAGCUGCAAUUUUGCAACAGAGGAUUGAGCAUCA: 0.332 ratio
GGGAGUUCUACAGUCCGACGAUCGGGAAAGCUUUCAUUCAGAAGUCAAGCCUCAUUAGACACCAGAGAAGUCACACAGGAGAGAAACCUUAUACGUGUAAGGAAUGUGGGAAAGCCUUCAGUGGCAAGUCAAAUCUCACAGAGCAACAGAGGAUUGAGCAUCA: 0.302 ratio
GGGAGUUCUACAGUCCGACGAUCGCUAAGCAGAGGAUCCAGGAAAGAAUUGCCAGAGAAGGAAUAAAAAAUAAGAUUUUAUAUGAAAGCACCCACCUUGAUCCUGAAAGAAAAAUGAAGACCAACAACAGCAGCUAAGCAACUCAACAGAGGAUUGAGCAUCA: 0.467 ratio

Series 3 — technique: RNA Bind-n-Seq; form: RNA; medium: in vitro; concentration: 365 nM; reference: no-protein control; reading: higher = stronger binding; measurement: RBNS enrichment (R)
Target: RNA binding protein fox-1 homolog 2, RRM domain, GST-SBP tag (RBFOX2, Homo sapiens, UniProt O43251-10, residues 100-194)
Setting: natural RNA segment, single round, ends assumed
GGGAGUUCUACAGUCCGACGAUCACAAGAAGGCCCAGCUAGAAGAACAUAUCCCACACACAGGCAACAGCUUUUGGGAUAGCCCCCGCUCUAGUUGUUCAGAACCUACAUGAAAACCAGGCUGCAUGUUCUGCUGGAAUUCUCGGGUGCCAA: 13.5
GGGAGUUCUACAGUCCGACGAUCAUGCGCGGAGGAGCUAGCCUGAAGGAUUCUGGGAAUCAUGUCCAUCCCUUUUCCUGUCAGUGUUUUUGAAACCCACAGUUUUAGUUGGUGCUGAUGGAGGGAGGGGGAAGUGGAAUUCUCGGGUGCCAA: 0.414
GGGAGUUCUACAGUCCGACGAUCUAAAUAUUUCAGAUGCCUCACAGUAAGUUCACUCCUUUCCAUACUGAGGAAACAAGAAAAGAAGAAGAGGCACAUGAAGUGUGCUUUUGGGAAUAGAAUUUAAAAUUGGAUGGAAUUCUCGGGUGCCAA: 0.507
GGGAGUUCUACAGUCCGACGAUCCUUGGGUUCAUGGAUUAGUUUUGUAUCUAAAACAGGAAACAAGUCAGAUGAUGUGGUUUGUACACUUUCUGUAACCACCAGUGUGGACUUGAAGAAGUGUCCUCAGCAUGUGGAAUUCUCGGGUGCCAA: 3.37
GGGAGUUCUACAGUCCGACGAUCUAUUCCCUGACAUUUUCUUCCAUGUAGCCAUAAGCAGGGACCCAGCAUACAAUUCUUCUUACCUAGGAAUCAGGAACUAGUCCCAAAUAUACAGGAUUGAGUCAUGGUUUUGGAAUUCUCGGGUGCCAA: 0.567

Series 4 — technique: RNA Bind-n-Seq; form: RNA; medium: in vitro; concentration: 200 nM; setting: whole 134-nt RNA, ends assumed; with: 150 mM KCl; reference: input library; reading: higher = stronger binding; measurement: log2 enrichment
Target: Ras GTPase-activating protein-binding protein 1, full length (G3BP1, Homo sapiens, UniProt Q13283)
Sequence of UniProt Q13283 (whole entry, looked up): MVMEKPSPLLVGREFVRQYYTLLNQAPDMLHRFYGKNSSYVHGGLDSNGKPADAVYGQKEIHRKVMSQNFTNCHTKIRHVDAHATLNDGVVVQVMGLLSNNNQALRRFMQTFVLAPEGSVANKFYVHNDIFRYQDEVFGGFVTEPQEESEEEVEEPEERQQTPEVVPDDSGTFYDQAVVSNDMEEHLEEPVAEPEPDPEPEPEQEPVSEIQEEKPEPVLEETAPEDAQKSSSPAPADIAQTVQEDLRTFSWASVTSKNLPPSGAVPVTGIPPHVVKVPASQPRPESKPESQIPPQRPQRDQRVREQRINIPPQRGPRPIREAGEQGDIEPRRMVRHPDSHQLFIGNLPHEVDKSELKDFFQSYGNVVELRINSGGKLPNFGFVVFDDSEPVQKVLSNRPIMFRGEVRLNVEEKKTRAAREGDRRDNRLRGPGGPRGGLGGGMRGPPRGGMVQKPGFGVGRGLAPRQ
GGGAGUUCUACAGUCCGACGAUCCCUGUGCUACACAUCGUAUGUACCGAAUCGGGGAAAAAAAGGGGAAAAAGGGGUUUGGGGAAAGUAUUAUGUUACGCCGUUCGGAUCUGCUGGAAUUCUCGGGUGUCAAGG: 0.267
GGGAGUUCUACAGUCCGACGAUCUGUGCUACACAUCGUAUGUACCGAAUCGGGGAAAAAAAGGGGAAAAAGGGGAAAAAAAGGGGAAAGUAUUAUGUUACGCCGUUCGGAUCUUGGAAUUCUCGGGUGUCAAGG: -0.285
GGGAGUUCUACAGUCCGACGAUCCUGUGCUACACAUCGUAUGUACCGAAUCGGGUUUUUUUGGGUUUUUUUGGGGUUUUUUUGGAAAGUAUUAUGUUACGCCGUUCGGAUCUGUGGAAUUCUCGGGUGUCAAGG: -0.808
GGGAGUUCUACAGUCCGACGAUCGUCCUGUGCUACACAUCGUAUGUACCGAAUCGGAAAAAGGGGAAAAAGGGAAAAAGGGAAAGUAUUAUGUUACGCCGUUCGGAUCUGCACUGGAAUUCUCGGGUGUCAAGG: -0.595
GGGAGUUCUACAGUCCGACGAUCUGGUUUUGGUGCCUGGCAUCGAAGAUGGUGUGUUCUUUCUGGAAACUGUAUAUCUUAUUGGACUUAUCCAGAUGAUGAGAAACGCAAGGUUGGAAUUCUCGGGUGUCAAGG: -0.666
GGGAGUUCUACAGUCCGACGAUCUCUGUUUCCUCUGCCAGUGGCAAUGCAACACCUAACACUCCUGGGGAUGAGUCUCCCUGUGGUAUUAUUAUUCCUCAUGAAAACUCACCAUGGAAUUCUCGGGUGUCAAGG: 0.248
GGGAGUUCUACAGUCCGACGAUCGUCCUGUGCUACACAUCGUAUGUACCGAAUCGGGGUUUGGGGAAAGGGGAAAAAGGGGAAAGUAUUAUGUUACGCCGUUCGGAUCUGCACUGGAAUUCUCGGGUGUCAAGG: 0.38
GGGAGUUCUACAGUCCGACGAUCGUGCUACACAUCGUAUGUACCGAAUCGGGGUUUUUUUGGGGUUUUUUUGGGGAAAAAAAGGGGAAAGUAUUAUGUUACGCCGUUCGGAUCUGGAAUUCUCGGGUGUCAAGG: -0.469
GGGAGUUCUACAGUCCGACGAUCUUCUUUGCCCAACGGGGCCGUGGAUACCUGCCUUUUAAUUCUUUUUUAUUCGCCCAUCGGGGCCGCGGAUACCUGCUUUUUAUUUUUUUUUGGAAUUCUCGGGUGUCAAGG: 0.193

Series 5 — technique: protein-binding microarray; form: double-stranded DNA, one strand shown; medium: in vitro; concentration: 2200 nM top; setting: 60-bp whole probe; with: salmon DNA 0.4 mg/ml; reference: random background probes; reading: higher = stronger binding; measurement: fitted relative affinity; constant ends, left off below: GCCTAGCAC … GTCTTGATTCGCTTGACGCTGCTG
Target: Interferon regulatory factor 7, full length, phosphomimetic (IRF7, Homo sapiens, UniProt Q92985, residues 1-503, S471D/S472D/S475D/S476D/S477D/S483D/S484D/S487D)
Residues (chain): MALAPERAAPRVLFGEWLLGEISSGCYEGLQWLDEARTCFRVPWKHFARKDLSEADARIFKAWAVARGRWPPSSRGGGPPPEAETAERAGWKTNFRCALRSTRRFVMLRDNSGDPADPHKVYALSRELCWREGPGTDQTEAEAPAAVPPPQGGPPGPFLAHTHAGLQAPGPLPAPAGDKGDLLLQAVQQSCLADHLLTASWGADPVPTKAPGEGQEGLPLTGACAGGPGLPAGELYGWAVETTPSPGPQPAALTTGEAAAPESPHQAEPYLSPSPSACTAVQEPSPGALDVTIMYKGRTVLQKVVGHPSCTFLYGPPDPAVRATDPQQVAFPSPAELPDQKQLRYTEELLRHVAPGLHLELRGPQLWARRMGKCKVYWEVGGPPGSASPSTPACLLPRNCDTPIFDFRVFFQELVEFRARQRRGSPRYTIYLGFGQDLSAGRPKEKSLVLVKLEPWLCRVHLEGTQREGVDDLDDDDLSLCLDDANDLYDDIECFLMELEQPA
TTAGATTTCAGTATCCATTAGTGCTAG: 1.07 z-score
TTAGGTATCGGACGGGGTTAGTGCTAG: -0.0867 z-score
TCATGTTTTTTTCTACTACTGTGCTAG: 1.87 z-score
GACGATATCAGTATCGAGAGGTGCTAG: 0.159 z-score
TTAGAACTGAATATCGATTAGTGCTAG: -0.569 z-score
CTTTTATGCTCTTTCTACATGTGCTAG: 2.13 z-score
TTGGTGCTCATTTTTTTTGCGTGCTAG: 0.333 z-score
TTAGGTCTCCTTTTCCTGTAGTGCTAG: 1.52 z-score
TTAGGACTGCTTATCCTCTAGTGCTAG: 0.461 z-score
CCCTTAAAAGACGTGCCAATGTGCTAG: -0.279 z-score
GACGGTTTCGGTCTGGGGACGTGCTAG: 7.73 z-score
GACGATATCGACACTGGGGACGTGCTA: 0.0111 z-score
TAAAACATCATTTTTCCCTCGTGCTAG: 0.809 z-score
CTCTGTCTAAAATTGTTAAAGTGCTAG: 0.136 z-score

Some of these lines once more (series 1):
ATCGAAGA: -0.0206
GCTCCAGA: -0.144
CCGGAGAG: 0.1
ATCGTTTG: -0.0872
ATCGCAAT: -0.0349
ATTCTACG: 0.0788
TGGCGAAA: -0.0522
